Published values collected from several papers.
Numbered parts are unrelated; each lists some results of a single study.

Block 1
Target: RING finger protein unkempt homolog, zinc fingers 1-6, GST-SBP tag (UNK, Homo sapiens, UniProt Q9C0B0, residues 30-357)
Method: RNA Bind-n-Seq
Form: RNA
Medium: in vitro
Tested at: not given
Setting: RNA with constant flanks, human and mouse sites, ends assumed
Relative to: input RNA pool
Reading: higher = stronger binding
Endpoint: bound/input enrichment
Construct (chain): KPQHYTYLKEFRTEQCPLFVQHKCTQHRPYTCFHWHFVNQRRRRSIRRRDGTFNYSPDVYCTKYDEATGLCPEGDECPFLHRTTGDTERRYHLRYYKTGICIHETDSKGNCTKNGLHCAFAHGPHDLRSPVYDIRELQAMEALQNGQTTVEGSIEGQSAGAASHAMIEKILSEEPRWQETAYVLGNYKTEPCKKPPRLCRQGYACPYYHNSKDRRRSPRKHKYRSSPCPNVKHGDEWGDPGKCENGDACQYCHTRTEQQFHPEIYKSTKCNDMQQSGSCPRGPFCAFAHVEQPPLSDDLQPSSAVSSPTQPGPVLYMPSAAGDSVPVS
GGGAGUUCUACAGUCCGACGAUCGGGUCCCCUUCCUGACUCUUGUGUUUGGAUCUUACAUGAUUGCUCACGGAUUCUUCAGCGUCUAUUCAAUGUGUGUUGAAACCAUUUUCAUCUGCUUCUGUGAAGACCUGGAGAGGAACGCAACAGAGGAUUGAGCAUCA: 0.238 ratio
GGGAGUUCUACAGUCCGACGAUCUAUCCUGGUGGGGAGUCAUACCAGGACCUGGUGCAGCGGCUGGAGCCUGUCAUCAUGGAGCUGGAACGUCAGGGCAAUGUCCUCGUCAUCUCCCACCAGGCUGUCAUGCGCUGCCUCCUGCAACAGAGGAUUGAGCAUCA: 0.0618 ratio
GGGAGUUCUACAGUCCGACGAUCGUGGCUCGCUAUGCUGCCGAGAACAACAGGGUCUUCACUUUGAACCUGUCUGCACCGUUCAUUAGCCAGUUCUUCAAGGAAGCCUUGAUGGACGUCAUGCCUUAUGUUGAUAUCCUCUUUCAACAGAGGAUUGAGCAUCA: 0.136 ratio
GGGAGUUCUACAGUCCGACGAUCAUAAAGCAGCUGGUGUCUGGGGCAGACACACUGAACCUUGUUGCUGAAAUCCUCAAGUCUAUCGACAGAAUUAGUGAAGUUAAAGAUGAGGUGGACUCUUGAGACGCUCUACCUGCCACCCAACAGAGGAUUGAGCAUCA: 0.616 ratio
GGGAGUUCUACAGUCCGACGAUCCUGAGGUUAUUUGGAAUUGCUGAUAAGAUCUCCCUUGAUCUGAGUCUGGCCCGGGGCCUGGACUAUUAUACUGGAGUGAUUUAUGAAGCAGUACUGCUAGAGUCUCCAGCUCAGGCUGGACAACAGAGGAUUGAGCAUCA: 0.17 ratio
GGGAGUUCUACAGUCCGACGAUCGAACAAUCCUUGGAAACUGCUAAGGCAGUAAAGGAGCGCUAUAGUUAUGUCUGCCCAGAUUUAGUAAAAGAAUUUAACAAGUAUGAUACAGAUGGGUCAAAAUGGAUUAAACAGUAUACUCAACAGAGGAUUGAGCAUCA: 4.63 ratio
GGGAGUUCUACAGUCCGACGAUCUCACUACACUUGCCAAAAAACAACAGUCUUUAUGUCCUUACACCAGACUUGCCACCGCCUUCAUCAUCCAGCCAUGCUGGUGCCCUGCAGGAAUCAUUAAAUCAAAACUUCAUGCUGAUCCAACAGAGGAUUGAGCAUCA: 0.477 ratio
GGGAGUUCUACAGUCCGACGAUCGAAGUGGUGAACCGACCUCCAACUCCUCCCCCACCAUACAGUGCCUUCCAGCUACAGCAGCAGCAGCUGCUGCCUCCACAGUGUGGCCCUGCAGGUGGCAGUCCCCCGGGCAUCGAUCCCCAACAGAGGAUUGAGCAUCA: 0.0719 ratio

Block 2
Target: Histone acetyltransferase KAT6A, winged helix 1, GST fusion (KAT6A, Homo sapiens, UniProt Q92794, residues 1-85)
Method: protein binding microarray
Form: double-stranded DNA, one strand shown
Medium: in vitro
Tested at: not given
Setting: 8-mer, flanks averaged, mean of 2 arrays, mostly near background
Relative to: not given
Reading: higher = stronger binding
Endpoint: E-score
Target sequence (chain): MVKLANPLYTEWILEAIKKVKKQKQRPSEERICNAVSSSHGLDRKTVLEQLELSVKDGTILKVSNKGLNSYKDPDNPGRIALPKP
CTGTGCAA: -0.172
AGCCAGAT: -0.229
GGACCGCA: 0.0876
CCCGAATA: 0.0224
AATGTCGT: -0.223
CACATGCA: -0.087
ATTCGTTA: -0.196
CTGCTGAA: -0.105
ACTGTCGC: 0.167
CTTCGAAG: -0.134
AGTAATAA: -0.0198
CAGTACGC: 0.174
TCGGCAGA: 0.106
GGCACGCC: 0.299
ACAGGTGA: -0.126
GGAACGCC: 0.208
ACAACCAG: -0.155
CAAGTTAG: -0.0364
GAACTCTC: -0.0334
GTTTTGTA: -0.147
ACATGTCT: -0.0771
ACGACAGT: -0.161
GACTATAC: -0.0202

Block 3
Cell line: yeast with cyclin B3-Cln2 chimera
Observed: cell growth
Mode: binder
Method: competitive growth deep sequencing
Form: peptide
Tested at: concentration not given
Setting: peptide tiling library
Reading: direction not given
Endpoint: growth enrichment score
RRVLCFDS: 0.148
SSEVARHLLFQSHM: -0.301
EPRNLLSLFEDTLDPT: 0.319
AIRKMREDRWAVIAKM: -0.875
IVLICAKRSLCAAFSV: -0.625
TARRIFQEPTEPKTKA: 0.0854
KPITLDTTDFQESFVT: 1.01
PAKRRLELGE: 0.362
ESSQLTVQAEFDMSAI: 0.185
FREFEVEKQTAEETGL: 1.81
VKRLNFRSEEME: 0.293
NARRSLNFGGSTGT: -0.349
ALTMEALEDPSPELME: 1.26
DTERAHSTLDEDLERW: 0.66
IPDRSTKPVVFSPT: 0.369
PARRRLRLSVDEVSSP: -0.294
LRRQLSFSED: -0.904
RKLHFEDEVT: -0.107
PLRKAKRARLCSSSSS: 0.285
KRCATPVIIDEILPSK: 1.26

Block 4
Target: Protein C-ets-1 (ETS1, Homo sapiens, UniProt P14921, residues 1-441, Y397A, full length assumed)
Method: protein-binding microarray
Form: double-stranded DNA, one strand shown
Medium: in vitro
Tested at: not given
Setting: k-mer, scored over probes, only values ≥0.25
Reading: higher = stronger binding
Endpoint: E-score
Construct (chain): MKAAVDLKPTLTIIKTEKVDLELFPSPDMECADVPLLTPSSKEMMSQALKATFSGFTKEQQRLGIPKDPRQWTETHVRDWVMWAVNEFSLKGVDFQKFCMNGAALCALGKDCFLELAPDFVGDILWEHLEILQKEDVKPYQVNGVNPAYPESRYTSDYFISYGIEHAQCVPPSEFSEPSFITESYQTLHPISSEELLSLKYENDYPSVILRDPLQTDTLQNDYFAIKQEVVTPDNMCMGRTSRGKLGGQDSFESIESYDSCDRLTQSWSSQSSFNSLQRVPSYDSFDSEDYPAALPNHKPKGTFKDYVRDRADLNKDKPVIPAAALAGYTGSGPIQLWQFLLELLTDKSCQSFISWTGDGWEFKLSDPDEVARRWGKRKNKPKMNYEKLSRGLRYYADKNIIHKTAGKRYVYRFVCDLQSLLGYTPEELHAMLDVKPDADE
CCACATCC: 0.271
CCCGCCGC: 0.302
CTTCCGAC: 0.332
CATTGTCA: 0.341
ACTTCCTG: 0.408
ACTACGGA: 0.28
AGTATATA: 0.272
CGCGCGTA: 0.299
ATTTGCCG: 0.259
AAACACAC: 0.279
CGCCAAAC: 0.392
CAAATTGC: 0.294
CACGGCAA: 0.265
CTGTACAG: 0.266
AGTTTTGC: 0.283
CATTCGCG: 0.254
GACAAAGA: 0.329
GCCGGATA: 0.315
CGTGCACG: 0.298
GCGTCAAA: 0.258
AATGACAC: 0.299
GACCCGCC: 0.253

For quick reference, copied from above (block 1):
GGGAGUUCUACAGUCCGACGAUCGGGUCCCCUUCCUGACUCUUGUGUUUGGAUCUUACAUGAUUGCUCACGGAUUCUUCAGCGUCUAUUCAAUGUGUGUUGAAACCAUUUUCAUCUGCUUCUGUGAAGACCUGGAGAGGAACGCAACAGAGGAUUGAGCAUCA: 0.238 ratio
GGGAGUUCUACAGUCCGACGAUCGUGGCUCGCUAUGCUGCCGAGAACAACAGGGUCUUCACUUUGAACCUGUCUGCACCGUUCAUUAGCCAGUUCUUCAAGGAAGCCUUGAUGGACGUCAUGCCUUAUGUUGAUAUCCUCUUUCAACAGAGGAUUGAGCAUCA: 0.136 ratio
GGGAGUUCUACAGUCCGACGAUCUAUCCUGGUGGGGAGUCAUACCAGGACCUGGUGCAGCGGCUGGAGCCUGUCAUCAUGGAGCUGGAACGUCAGGGCAAUGUCCUCGUCAUCUCCCACCAGGCUGUCAUGCGCUGCCUCCUGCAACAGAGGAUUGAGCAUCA: 0.0618 ratio
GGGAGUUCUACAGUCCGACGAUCUCACUACACUUGCCAAAAAACAACAGUCUUUAUGUCCUUACACCAGACUUGCCACCGCCUUCAUCAUCCAGCCAUGCUGGUGCCCUGCAGGAAUCAUUAAAUCAAAACUUCAUGCUGAUCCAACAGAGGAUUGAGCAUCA: 0.477 ratio
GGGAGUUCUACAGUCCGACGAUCCUGAGGUUAUUUGGAAUUGCUGAUAAGAUCUCCCUUGAUCUGAGUCUGGCCCGGGGCCUGGACUAUUAUACUGGAGUGAUUUAUGAAGCAGUACUGCUAGAGUCUCCAGCUCAGGCUGGACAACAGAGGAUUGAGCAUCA: 0.17 ratio
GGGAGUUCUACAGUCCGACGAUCAUAAAGCAGCUGGUGUCUGGGGCAGACACACUGAACCUUGUUGCUGAAAUCCUCAAGUCUAUCGACAGAAUUAGUGAAGUUAAAGAUGAGGUGGACUCUUGAGACGCUCUACCUGCCACCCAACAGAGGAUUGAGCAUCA: 0.616 ratio
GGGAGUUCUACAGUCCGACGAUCGAACAAUCCUUGGAAACUGCUAAGGCAGUAAAGGAGCGCUAUAGUUAUGUCUGCCCAGAUUUAGUAAAAGAAUUUAACAAGUAUGAUACAGAUGGGUCAAAAUGGAUUAAACAGUAUACUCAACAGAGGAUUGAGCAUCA: 4.63 ratio
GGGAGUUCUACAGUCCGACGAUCGAAGUGGUGAACCGACCUCCAACUCCUCCCCCACCAUACAGUGCCUUCCAGCUACAGCAGCAGCAGCUGCUGCCUCCACAGUGUGGCCCUGCAGGUGGCAGUCCCCCGGGCAUCGAUCCCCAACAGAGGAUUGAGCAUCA: 0.0719 ratio
